Assay results pooled from the literature.
Each numbered part is a random draw from the data of one study; scales do not carry over between parts.
Sequence of UniProt Q8NE63 (whole entry, looked up): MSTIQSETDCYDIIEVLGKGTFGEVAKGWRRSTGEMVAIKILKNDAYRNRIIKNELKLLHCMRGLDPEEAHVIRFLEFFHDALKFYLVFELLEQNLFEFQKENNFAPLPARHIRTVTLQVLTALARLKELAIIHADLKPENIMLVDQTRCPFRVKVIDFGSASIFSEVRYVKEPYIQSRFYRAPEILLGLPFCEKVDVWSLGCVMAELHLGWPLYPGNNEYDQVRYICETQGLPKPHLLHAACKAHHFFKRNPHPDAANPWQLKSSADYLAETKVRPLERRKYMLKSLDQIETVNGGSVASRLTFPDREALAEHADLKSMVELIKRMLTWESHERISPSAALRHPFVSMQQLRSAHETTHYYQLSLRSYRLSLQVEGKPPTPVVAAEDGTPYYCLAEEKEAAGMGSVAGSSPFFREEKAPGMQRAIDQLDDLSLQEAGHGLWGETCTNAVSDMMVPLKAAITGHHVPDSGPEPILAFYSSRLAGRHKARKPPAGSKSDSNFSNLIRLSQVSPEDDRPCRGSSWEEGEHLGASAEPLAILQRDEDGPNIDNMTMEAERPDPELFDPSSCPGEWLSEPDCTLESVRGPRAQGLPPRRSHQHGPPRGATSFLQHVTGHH
Sequence of UniProt Q8N568 (whole entry, looked up): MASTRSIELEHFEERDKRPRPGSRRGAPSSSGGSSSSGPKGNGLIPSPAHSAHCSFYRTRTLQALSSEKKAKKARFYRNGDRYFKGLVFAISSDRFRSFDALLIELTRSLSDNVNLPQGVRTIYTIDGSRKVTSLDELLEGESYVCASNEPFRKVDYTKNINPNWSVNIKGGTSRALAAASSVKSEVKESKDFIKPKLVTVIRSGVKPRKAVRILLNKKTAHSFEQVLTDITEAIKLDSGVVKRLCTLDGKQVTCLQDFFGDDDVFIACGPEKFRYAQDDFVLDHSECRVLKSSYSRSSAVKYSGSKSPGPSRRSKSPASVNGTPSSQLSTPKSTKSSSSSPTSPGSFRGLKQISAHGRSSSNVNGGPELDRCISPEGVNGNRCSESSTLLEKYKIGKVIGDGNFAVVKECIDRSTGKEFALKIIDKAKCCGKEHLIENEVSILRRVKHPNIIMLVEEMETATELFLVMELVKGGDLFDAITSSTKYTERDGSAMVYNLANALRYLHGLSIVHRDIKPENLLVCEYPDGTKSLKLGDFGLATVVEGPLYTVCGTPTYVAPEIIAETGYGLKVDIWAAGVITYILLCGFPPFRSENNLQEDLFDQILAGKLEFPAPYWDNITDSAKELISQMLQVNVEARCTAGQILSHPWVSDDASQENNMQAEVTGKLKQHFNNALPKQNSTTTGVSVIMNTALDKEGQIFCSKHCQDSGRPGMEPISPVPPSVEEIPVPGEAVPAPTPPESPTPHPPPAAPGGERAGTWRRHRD
Sequence of UniProt Q16816 (whole entry, looked up): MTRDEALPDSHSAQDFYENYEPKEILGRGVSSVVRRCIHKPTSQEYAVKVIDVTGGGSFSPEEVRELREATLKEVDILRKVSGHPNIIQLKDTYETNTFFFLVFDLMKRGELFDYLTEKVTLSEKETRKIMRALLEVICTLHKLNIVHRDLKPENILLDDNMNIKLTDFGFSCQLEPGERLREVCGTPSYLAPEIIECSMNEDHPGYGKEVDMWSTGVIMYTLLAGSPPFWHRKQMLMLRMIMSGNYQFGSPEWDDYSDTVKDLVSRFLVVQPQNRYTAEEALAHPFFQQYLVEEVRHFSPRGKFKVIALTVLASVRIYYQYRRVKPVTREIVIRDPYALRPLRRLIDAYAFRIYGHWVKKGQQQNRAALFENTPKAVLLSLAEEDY
Sequence of UniProt Q9UBE8 (whole entry, looked up): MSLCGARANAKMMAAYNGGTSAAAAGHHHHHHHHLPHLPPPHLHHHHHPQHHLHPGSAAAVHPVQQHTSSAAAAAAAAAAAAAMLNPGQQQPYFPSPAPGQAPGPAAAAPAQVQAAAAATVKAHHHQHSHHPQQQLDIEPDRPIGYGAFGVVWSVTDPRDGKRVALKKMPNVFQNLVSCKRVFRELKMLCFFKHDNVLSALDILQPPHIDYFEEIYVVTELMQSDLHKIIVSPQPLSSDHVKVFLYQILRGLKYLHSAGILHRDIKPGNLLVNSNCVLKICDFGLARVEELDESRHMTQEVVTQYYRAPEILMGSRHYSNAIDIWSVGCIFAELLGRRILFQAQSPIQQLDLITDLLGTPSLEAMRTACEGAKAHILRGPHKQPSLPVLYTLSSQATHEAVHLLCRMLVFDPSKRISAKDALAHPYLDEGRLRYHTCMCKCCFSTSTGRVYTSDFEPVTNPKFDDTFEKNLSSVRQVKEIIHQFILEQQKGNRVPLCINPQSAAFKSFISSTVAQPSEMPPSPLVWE
Sequence of UniProt O75676 (whole entry, looked up): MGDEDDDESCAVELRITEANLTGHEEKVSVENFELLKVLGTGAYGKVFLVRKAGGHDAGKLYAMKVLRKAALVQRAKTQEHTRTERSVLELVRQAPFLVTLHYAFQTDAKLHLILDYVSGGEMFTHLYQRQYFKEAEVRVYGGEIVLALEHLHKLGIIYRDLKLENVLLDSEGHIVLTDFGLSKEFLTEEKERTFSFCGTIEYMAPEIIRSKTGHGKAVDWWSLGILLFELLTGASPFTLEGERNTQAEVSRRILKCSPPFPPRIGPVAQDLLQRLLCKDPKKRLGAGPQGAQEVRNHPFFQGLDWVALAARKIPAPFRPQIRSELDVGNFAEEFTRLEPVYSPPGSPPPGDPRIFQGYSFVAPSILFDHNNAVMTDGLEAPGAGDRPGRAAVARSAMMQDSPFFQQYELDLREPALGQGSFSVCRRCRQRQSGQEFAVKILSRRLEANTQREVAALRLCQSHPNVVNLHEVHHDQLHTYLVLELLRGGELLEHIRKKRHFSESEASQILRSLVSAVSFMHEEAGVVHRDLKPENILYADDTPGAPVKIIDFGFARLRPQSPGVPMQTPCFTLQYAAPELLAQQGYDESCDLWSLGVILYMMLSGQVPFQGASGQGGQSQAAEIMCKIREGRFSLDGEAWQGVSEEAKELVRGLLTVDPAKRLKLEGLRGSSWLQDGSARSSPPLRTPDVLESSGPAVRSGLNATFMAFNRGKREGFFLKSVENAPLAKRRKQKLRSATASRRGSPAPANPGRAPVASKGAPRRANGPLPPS
Sequence of UniProt Q99755 (whole entry, looked up): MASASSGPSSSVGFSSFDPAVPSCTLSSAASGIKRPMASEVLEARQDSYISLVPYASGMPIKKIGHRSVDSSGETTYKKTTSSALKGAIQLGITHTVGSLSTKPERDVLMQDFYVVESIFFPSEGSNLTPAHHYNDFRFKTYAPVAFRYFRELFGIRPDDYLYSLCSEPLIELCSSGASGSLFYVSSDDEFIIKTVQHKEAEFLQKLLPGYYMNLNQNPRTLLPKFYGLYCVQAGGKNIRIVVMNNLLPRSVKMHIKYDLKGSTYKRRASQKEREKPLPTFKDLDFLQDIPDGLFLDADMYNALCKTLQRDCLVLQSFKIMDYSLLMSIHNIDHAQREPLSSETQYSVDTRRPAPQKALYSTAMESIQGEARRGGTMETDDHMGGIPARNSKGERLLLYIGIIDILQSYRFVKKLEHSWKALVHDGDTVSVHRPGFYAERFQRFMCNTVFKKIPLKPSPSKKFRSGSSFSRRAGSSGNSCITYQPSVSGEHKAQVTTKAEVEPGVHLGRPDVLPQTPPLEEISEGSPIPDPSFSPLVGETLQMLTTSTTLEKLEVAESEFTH
Sequence of UniProt Q05397 (whole entry, looked up): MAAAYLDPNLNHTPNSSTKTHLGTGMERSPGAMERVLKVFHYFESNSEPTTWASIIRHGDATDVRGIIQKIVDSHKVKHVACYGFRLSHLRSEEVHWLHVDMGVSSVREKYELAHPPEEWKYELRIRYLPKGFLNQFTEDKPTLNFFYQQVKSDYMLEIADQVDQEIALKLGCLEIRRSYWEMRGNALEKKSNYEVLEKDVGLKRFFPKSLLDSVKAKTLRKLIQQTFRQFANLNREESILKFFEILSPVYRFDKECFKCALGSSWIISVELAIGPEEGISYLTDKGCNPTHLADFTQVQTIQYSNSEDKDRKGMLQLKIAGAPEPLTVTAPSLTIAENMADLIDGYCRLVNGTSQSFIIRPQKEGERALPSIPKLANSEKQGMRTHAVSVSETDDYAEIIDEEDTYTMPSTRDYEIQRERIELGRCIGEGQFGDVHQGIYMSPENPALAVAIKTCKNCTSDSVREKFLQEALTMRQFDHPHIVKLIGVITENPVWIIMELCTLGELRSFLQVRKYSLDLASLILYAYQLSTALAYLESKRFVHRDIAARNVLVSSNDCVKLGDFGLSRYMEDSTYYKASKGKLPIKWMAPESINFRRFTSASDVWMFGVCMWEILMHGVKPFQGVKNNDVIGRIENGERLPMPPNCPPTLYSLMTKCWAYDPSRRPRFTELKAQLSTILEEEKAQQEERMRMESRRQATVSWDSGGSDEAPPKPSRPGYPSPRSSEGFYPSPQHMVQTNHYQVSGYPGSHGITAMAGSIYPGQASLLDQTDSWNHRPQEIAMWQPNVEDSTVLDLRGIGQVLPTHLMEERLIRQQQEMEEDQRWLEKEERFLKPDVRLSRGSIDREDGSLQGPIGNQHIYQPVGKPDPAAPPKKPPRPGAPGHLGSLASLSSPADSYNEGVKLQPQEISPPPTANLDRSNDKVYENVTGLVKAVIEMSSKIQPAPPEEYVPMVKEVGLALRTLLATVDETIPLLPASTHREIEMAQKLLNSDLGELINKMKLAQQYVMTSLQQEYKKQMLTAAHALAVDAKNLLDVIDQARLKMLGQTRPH

Sample 1 — SMILES: O=C(Nc1ccccc1)Nc1cccc(Oc2ccc3nccn3n2)c1; tested at: 1 µM
| target | test | conditions | how to read | remaining binding [%] |
| --- | --- | --- | --- | --- |
| ERBB4 (Homo sapiens, UniProt Q15303) | competitive binding panel |  | reference: vehicle | 100 |
| PIP5K1A (Homo sapiens, UniProt Q99755) | competitive binding panel |  | reference: vehicle | 91 |
| CLK4 (Homo sapiens, UniProt Q9HAZ1) | competitive binding panel |  | reference: vehicle | 100 |
| EIF2AK4 (Homo sapiens, UniProt Q9P2K8, S808G) | competitive binding panel |  | reference: vehicle | 86 |
| NLK (Homo sapiens, UniProt Q9UBE8) | competitive binding panel |  | reference: vehicle | 78 |
| PIK3CA (Homo sapiens, UniProt P42336) | competitive binding panel |  | reference: vehicle | 100 |
| MAP3K12 (Homo sapiens, UniProt Q12852) | competitive binding | DLK |  | 100 |
| DCLK2 (Homo sapiens, UniProt Q8N568) | competitive binding panel, refers to: DCAMKL2 |  | reference: vehicle | 100 |
| RIPK2 (Homo sapiens, UniProt O43353) | competitive binding panel |  | reference: vehicle | 100 |
| CDK13 (Homo sapiens, UniProt Q14004) | competitive binding panel, refers to: CDC2L5 |  | reference: vehicle | 100 |
| RPS6KA4 (Homo sapiens, UniProt O75676) | competitive binding scan | N-terminal kinase domain 1 |  | 57 |
| NEK2 (Homo sapiens, UniProt P51955) | competitive binding panel |  | reference: vehicle | 100 |

Sample 2 — effect on: cell-free assay; method: competition with immobilised ligand; tested at: 1 µM
Compound: CCCCN(CCCC)C(=O)CN1C[C@H](c2cc(OC)c3c(c2)OCO3)[C@@H](C(=O)O)[C@@H]1CC(C)(C)CCC
| target | remaining binding |
| --- | --- |
| EIF2AK1 (Homo sapiens, UniProt Q9BQI3) | 100% |
| EPHB2 (Homo sapiens, UniProt P29323) | 100% |
| LATS2 (Homo sapiens, UniProt Q9NRM7) | 100% |
| HIPK4 (Homo sapiens, UniProt Q8NE63) | 100% |
| RIOK2 (Homo sapiens, UniProt Q9BVS4) | 65.3% |
| ACVR2B (Homo sapiens, UniProt Q13705) | 100% |
| PTK2 (Homo sapiens, UniProt Q05397) | 100% |
| NEK10 (Homo sapiens, UniProt Q6ZWH5) | 57.4% |
| PHKG1 (Homo sapiens, UniProt Q16816) | 100% |
| ITK (Homo sapiens, UniProt Q08881) | 100% |
| DSTYK (Homo sapiens, UniProt Q6XUX3) | 68.6% |

Sample 3 — species: mouse; medium: microsomes or S9; tested at: 2 µM; time: 0.5 h
| SMILES | remaining compound |
| --- | --- |
| COC(=O)c1ccc(C(F)(F)F)nc1OC(C)C(=O)Nc1ccccc1 (stereo not shown) | 0.0355% |
| CCCCC/N=c1\n(C)c(=O)nc2sccn12 | 1.82% |
| Cc1noc(C)c1CCC(=O)Nc1cccc2ncccc12 | 67.6% |
| CN(C)CCn1c(=N)n(CC(O)c2ccc(Cl)c(Cl)c2)c2ccccc21 (stereo not shown) | 35.9% |
| COc1ccc(S(=O)(=O)[C@H]2CS(=O)(=O)C[C@@H]2NCc2ccc3c(c2)OCO3)cc1C | 3.49% |
| Cc1ncc(CN(C)c2nnc(C)c(C)c2C#N)s1 | 5.17% |
| CC(C)Oc1ccc(CN2C(=O)c3cc4ccsc4n3CC2(C)C(=O)NCc2ccc(F)cc2)cc1 (stereo not shown) | 79.2% |
| Cc1ccc(N(C(C)C(=O)N(C)C)S(C)(=O)=O)cc1 (stereo not shown) | 41.6% |

Sample 4 — effect on: enzyme activity; mode: inhibitor; tested at: 0.5 µM; reference: control
Target: Cyclin-dependent kinase 5, with p35 (CDK5, Homo sapiens, UniProt Q00535)
Sequence of UniProt Q00535 (whole entry, looked up): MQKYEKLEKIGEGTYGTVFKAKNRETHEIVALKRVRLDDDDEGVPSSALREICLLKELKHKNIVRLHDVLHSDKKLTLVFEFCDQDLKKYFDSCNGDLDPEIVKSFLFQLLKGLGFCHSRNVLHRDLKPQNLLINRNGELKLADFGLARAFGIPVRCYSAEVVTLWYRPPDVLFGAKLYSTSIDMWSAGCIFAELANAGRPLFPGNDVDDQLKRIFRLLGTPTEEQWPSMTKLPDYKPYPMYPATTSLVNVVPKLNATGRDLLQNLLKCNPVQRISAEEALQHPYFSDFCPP
| Structure (SMILES) | remaining activity |
| --- | --- |
| CC(C)[C@H](CO)Nc1nc(Nc2cc(N)cc(Cl)c2)c2ncn(C(C)C)c2n1 | 0.133% |
| O=C1NC(=O)C(c2cn(CCCn3ccnc3)c3ccccc23)=C1Nc1ccccc1 | 91.4% |
| COc1cc2ncnc(Nc3ccc(Oc4ccccc4)cc3)c2cc1OC | 115% |
| O=C1NC(=O)C(c2cn(CCCO)c3ncccc23)=C1c1cnccn1 | 73.9% |
| COc1ccc(CNC(=O)Nc2ncc([N+](=O)[O-])s2)cc1 | 96.4% |
| O=C(CCCc1ccc(-c2ccccc2F)cc1)Nc1ccc(O)cc1 | 92.5% |
| CNC(=O)c1cc(Oc2ccc(NC(=O)Nc3ccc(Cl)c(C(F)(F)F)c3)cc2)ccn1 | 99.9% |
| COc1ccc(C(=O)Nc2sc3c(c2C(N)=O)CCCC3)cc1OC | 90.8% |
| Cc1ccc(NC(=O)c2ccc(CN3CCN(C)CC3)cc2)cc1Nc1nc(-c2cccnc2)cs1 | 100% |
| O=C(O)c1ccc2c3c1cccc3c(=O)n1c3ccccc3nc21 | 88% |
| Cc1nc(-c2ccccc2)c(-c2ccncc2)o1 | 104% |
| COc1cc2ncnc(Nc3ccc(F)c(Cl)c3)c2cc1OCCCN1CCOCC1 | 103% |
| C#Cc1cccc(Nc2ncnc3cc(OCCOC)c(OCCOC)cc23)c1 | 108% |
| CCOC(=O)c1c(C)[nH]c(/C=C2\C(=O)Nc3ccccc32)c1C | 96.8% |
| Nc1[nH]nc2nc3ccccc3nc12 | 88.7% |

Repeated from above (sample 1):
| target | test | conditions | how to read | remaining binding [%] |
| --- | --- | --- | --- | --- |
| NLK (Homo sapiens, UniProt Q9UBE8) | competitive binding panel |  | reference: vehicle | 78 |
| PIK3CA (Homo sapiens, UniProt P42336) | competitive binding panel |  | reference: vehicle | 100 |
| MAP3K12 (Homo sapiens, UniProt Q12852) | competitive binding | DLK |  | 100 |
| DCLK2 (Homo sapiens, UniProt Q8N568) | competitive binding panel, refers to: DCAMKL2 |  | reference: vehicle | 100 |
| RIPK2 (Homo sapiens, UniProt O43353) | competitive binding panel |  | reference: vehicle | 100 |
